Published values pooled from the literature.
Each numbered part is a random draw from the data of one study; scales do not carry over between parts. Positions count from the first letter of the parent shown.

Sample 1 — target: CCNA1, cyclin fold, Cln2 fusion (human); method: yeast growth competition, sequencing; matrix: yeast; setting: weak parent motif; relative to: not given; reading: higher = stronger binding; endpoint: normalised enrichment score
Starting sequence: CDC6 docking peptide (human); TLKGRRLVFDNQL; partner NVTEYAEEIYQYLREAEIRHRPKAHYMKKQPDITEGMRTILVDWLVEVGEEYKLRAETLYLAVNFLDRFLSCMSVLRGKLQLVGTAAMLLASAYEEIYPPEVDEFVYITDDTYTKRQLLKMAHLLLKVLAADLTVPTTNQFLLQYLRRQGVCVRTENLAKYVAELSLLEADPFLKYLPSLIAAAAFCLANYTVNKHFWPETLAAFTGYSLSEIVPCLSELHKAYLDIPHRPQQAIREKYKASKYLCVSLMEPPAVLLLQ
TLKGRRLVFDNRL [Q12R]: 0.363
TLKGRRLVFDYQL [N11Y]: 0.382
TLKGRRMVFDNQL [L7M]: 0.347
TLTGRRLVFDNQL [K3T]: 0.417
TLKGRREVFDNQL [L7E]: 0.465
TLKGRRLVVDNQL [F9V]: -0.176
TLKGRYLVFDNQL [R6Y]: 0.505
RLKGRRLVFDNQL [T1R]: 0.0789
TLKGRRLVFDFQL [N11F]: 0.409

Sample 2 — method: DHFR PCA, deep sequencing; matrix: yeast; with: (+)-ABA 710 µM; relative to: wild-type fitted maximum; reading: higher = stronger binding; endpoint: relative binding score
Target: ABI1, truncated, D143A, DHFR fusion (Arabidopsis thaliana)
Setting: methotrexate growth selection, single substitutions
Starting sequence: PYL1, truncated, DHFR fusion (Arabidopsis thaliana); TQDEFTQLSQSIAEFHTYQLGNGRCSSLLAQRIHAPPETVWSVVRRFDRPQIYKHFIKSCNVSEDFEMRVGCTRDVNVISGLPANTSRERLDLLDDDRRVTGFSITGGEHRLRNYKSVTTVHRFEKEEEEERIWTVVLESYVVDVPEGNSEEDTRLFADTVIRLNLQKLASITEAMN; partner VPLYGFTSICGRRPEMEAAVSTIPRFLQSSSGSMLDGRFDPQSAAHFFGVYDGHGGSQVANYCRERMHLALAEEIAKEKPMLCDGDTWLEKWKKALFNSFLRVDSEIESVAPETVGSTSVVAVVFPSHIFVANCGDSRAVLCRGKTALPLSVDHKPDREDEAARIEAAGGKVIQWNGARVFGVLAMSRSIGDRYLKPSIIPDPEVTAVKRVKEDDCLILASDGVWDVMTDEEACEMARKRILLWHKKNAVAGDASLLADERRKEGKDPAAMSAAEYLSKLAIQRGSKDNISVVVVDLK
N61S: 103%
T17E: 102%
H34D: 105%
A30K: 105%
L29H: 99.3%
L156F: 96.9%

Sample 3 — method: protein binding microarray; molecule type: double-stranded DNA, one strand shown; matrix: in vitro; tested at: not given; relative to: not given; reading: higher = stronger binding; endpoint: E-score
Target: Histone acetyltransferase KAT6A, both winged helices, GST fusion (KAT6A, Homo sapiens, UniProt Q92794, residues 1-181)
Setting: 8-mer, flanks averaged, mean of 2 arrays, mostly near background
Construct (chain): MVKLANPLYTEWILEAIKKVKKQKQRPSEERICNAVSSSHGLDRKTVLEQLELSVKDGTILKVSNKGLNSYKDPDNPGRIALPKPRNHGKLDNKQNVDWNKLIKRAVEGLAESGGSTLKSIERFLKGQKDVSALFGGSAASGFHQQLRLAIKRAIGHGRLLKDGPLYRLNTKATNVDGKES
GAGTCACC: -0.07
GGGGTGAC: -0.115
GCTAATAC: 0.0167
AACTAAGT: -0.0542
GGGCGAAC: 0.0208
ATTCCCAC: -0.155
CACTCCTC: -0.272
AGGAAACA: -0.164
AGGGTGCG: 0.0577
CAGAGATC: -0.196

Other studies, line by line
PhoQ, residues 284 288 289 292 302 303 SSTLLI
fold induction (PhoP, residues 12 14 15 18 19 FWNTL (Escherichia coli, UniProt P23836); Sort-seq, item: YFP reporter; E. coli; PhoQ-PhoP variant library, with: 10 µM Mg2+; relative to: high Mg2+ state, higher = stronger signaling): 6.23

Repeated from above (sample 2):
N61S: 103%
